Measurements from different studies.
Every numbered part comes from another study and shows a few of its results, in no order.

Series 1 — method: protein-binding microarray; form: double-stranded DNA, one strand shown; sample: in vitro; tested at: not given; reading: higher = stronger binding
Target: Max dimerization protein 1, bHLH-zipper, MAX partner unstated (MXD1, Homo sapiens, UniProt Q05195, residues 56-136)
Setting: k-mer, scored over probes, only values ≥0.25
Construct (chain): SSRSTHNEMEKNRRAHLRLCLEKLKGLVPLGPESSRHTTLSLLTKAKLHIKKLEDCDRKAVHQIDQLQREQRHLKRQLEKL
Sequence	E-score
CGTGCGCC	0.355
ACACGGGG	0.402
GACGTGGA	0.266
CTCGTGCA	0.396
CATGGGAC	0.332
ATGAGGAG	0.254
AAGCATGC	0.399
CATACATG	0.279
AGCGTGTC	0.334
ACATGTCG	0.367
ACGCAACA	0.267
CCGGCCCC	0.285
CGTGGCAA	0.275
ACAACACG	0.351
CACGCGGA	0.429
GTACACGA	0.337

Series 2 — method: RNAcompete; form: RNA; sample: in vitro; tested at: 20 nM; setting: 7-mer, probes averaged, single round; relative to: mean of 7-mers; reading: higher = stronger binding
Target: PABPC1L2, full length, GST fusion (mouse, UniProt A0ABA7IW68)
Residues (chain): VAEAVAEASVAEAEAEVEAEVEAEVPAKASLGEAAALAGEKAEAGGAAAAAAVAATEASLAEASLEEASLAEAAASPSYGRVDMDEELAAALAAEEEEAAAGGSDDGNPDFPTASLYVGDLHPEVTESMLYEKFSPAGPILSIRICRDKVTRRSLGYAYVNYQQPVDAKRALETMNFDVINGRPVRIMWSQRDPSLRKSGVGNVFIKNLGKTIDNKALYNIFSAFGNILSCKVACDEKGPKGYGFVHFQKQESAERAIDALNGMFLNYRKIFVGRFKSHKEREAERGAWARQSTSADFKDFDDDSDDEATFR
Sequence	7-mer Z-score
AGCACUG	-0.0808
CCCCUUA	-0.469
UAAACGU	0.22
UAUUGCG	-0.0917
GAAUCAC	-0.0301
CCCGCUU	-0.407
AACGCCA	0.017
AGGCGCA	0.169
UGUGGUU	-0.202
GGAAUCG	-0.11
GAUUCUC	-0.318
GAGUCUG	-0.32
GCUUAGA	-0.144
AGUUACC	-0.108
GUCGCAC	-0.329
GGAACAC	0.126
AGGGGUC	0.196
UCGAAAG	-0.184
CUCUCUG	-0.304
GGCCCAG	-0.0645

Series 3 — method: RNA Bind-n-Seq; form: RNA; sample: in vitro; tested at: 365 nM; relative to: no-protein control; reading: higher = stronger binding
Target: RNA binding protein fox-1 homolog 2, RRM domain, GST-SBP tag (RBFOX2, Homo sapiens, UniProt O43251-10, residues 100-194)
Setting: natural RNA segment, single round, ends assumed
Target sequence (chain): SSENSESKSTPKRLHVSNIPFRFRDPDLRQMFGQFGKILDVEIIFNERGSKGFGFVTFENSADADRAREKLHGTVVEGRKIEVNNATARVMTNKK
Sequence	RBNS enrichment (R)
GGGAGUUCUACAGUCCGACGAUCUAUGUGUAGACAAGCUCUCGCUCUGUCACCCAGGCUGGAGUGCAGUGGUGCAAUCAUGGUUCACUGCAGUCUUGACCUUUUGGGCUCAAGUGAUCCUCCCACCUCAGCCUUGGAAUUCUCGGGUGCCAA	0.206
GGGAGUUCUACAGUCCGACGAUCUAAGGGGGAAAUUUCAAAUUUAUGCCUUAUAAAAUCACACUGGAAAAAAAUUGUCCCAGAUGCGUUAAGAAAUAAUAACACCCAGGGAUACUCACCCAUGCAUAGCUACCUGGAAUUCUCGGGUGCCAA	0.555
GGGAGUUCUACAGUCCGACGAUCUUUAGUUUUUGCCUUCAUGUUAUACAUUUAUGAUUUGAAACUGUACAUCUGUUACCUUGAAAAACAUUGAAGAAAGUACUGAAGUGUGCAUGGAGGUGGUUUAAGCAUAAUGGAAUUCUCGGGUGCCAA	2.11
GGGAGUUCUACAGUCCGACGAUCUACUUCACUCUUACCUAGCACGCUGUCUUCUCAUUGCUUUGGGGGAGGGAGGGUCUCUCUGCUGGCACUGUCUAACUUGCUUACCUGCUGACUUUGCAGUUUGCUUGUGCUGGAAUUCUCGGGUGCCAA	0.648
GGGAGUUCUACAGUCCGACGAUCAAUUCAAGCCAUGCCAGGAAUCUGCCUACCUGCCAGGUUCAGUUCUUUUAAGGUGCCUCUUCAGGGACACAGUGUGUCUCUCUGAUUGGGCUUCUAAAUCAAAAGCCUGAUGGAAUUCUCGGGUGCCAA	0.418
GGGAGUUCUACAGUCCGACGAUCCUUUUUUUUAUUAGUAAAAGCAAGUCUCUUUGAAUUCUUCAUUCUAGAUUUGUACAAAUGCUUUUUUUGUCCGUCCUCGUGGGGUUUUUUUUCUCCCCCUUUUCUUUGUUUGGAAUUCUCGGGUGCCAA	0.713
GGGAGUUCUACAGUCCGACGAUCCAACACAAUCAGCGGGUACUACCUGUGGCCCCCAACUCCUGUCACACUGGCUAUUGGUGGUGACUACUUUCUCAAGCCCUGGCUCCCCCAAGACAGUCUUUCCUAACUGCUGGAAUUCUCGGGUGCCAA	0.335
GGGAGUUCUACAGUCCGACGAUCAUAUAGUCAACUCUUGAUUAUCCACGUGUGGAUUAUCCACCAUGCCAGGAAGACCCAUAACUGGUUUUAACACUAACUAGAGGGAAUGACUUCUUUGCAUAGUGAGUGACUGGAAUUCUCGGGUGCCAA	0.231
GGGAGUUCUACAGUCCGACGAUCCAUGUCGUAAGGCAGCAGCUGUGCCAGGAUAGCUGGGUCCAUUCAGAGCACCUUGAGAAGUGUUGCAGGGAGGUGUUAAGAAGAGAACUCUGUGCAAACAGUGAUGGAAGUGGAAUUCUCGGGUGCCAA	1.05
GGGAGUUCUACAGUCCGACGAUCUGCAUCUAAUCCAAGCUUUGAAGGGUGUUGCUUGGGAGGAAACAAAUACAGCCUUCCAUCUUCACUCCAGUUAGGGAUCCUUUCAAAGUCUCCUUCACAGUGAGGAAAAAUGGAAUUCUCGGGUGCCAA	0.383
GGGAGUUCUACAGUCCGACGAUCCAUUUGCUUCUCUCCUUCCUGGAAAGCUUCCCUUUAUGUUUUAUUUUGACCCCAGAUGUCCAGAUGUUUUGCAGUGUCUGGGGCUUGUGUCCCUUGUUCUUCGUUCUGCUUGGAAUUCUCGGGUGCCAA	2
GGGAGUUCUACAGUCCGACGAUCAACUCAACUCCCUGACACCCUAUCCCCCCAUCUAUUCUUAAACUCUUUCAUAUAUAUUUUCACUUCCUAAUUCUAGUGUACAUAUCCCUGUAUAUCAUGGUAUCUGUGGGUGGAAUUCUCGGGUGCCAA	0.531

Series 4 — method: universal PBM; form: double-stranded DNA, one strand shown; sample: in vitro; tested at: 600 nM; reading: higher = stronger binding
Target: Sal-like protein 4, full length isoform A (SALL4, Homo sapiens, UniProt Q9UJQ4, residues 1-1053)
Chain of UniProt Q9UJQ4 (whole entry, looked up): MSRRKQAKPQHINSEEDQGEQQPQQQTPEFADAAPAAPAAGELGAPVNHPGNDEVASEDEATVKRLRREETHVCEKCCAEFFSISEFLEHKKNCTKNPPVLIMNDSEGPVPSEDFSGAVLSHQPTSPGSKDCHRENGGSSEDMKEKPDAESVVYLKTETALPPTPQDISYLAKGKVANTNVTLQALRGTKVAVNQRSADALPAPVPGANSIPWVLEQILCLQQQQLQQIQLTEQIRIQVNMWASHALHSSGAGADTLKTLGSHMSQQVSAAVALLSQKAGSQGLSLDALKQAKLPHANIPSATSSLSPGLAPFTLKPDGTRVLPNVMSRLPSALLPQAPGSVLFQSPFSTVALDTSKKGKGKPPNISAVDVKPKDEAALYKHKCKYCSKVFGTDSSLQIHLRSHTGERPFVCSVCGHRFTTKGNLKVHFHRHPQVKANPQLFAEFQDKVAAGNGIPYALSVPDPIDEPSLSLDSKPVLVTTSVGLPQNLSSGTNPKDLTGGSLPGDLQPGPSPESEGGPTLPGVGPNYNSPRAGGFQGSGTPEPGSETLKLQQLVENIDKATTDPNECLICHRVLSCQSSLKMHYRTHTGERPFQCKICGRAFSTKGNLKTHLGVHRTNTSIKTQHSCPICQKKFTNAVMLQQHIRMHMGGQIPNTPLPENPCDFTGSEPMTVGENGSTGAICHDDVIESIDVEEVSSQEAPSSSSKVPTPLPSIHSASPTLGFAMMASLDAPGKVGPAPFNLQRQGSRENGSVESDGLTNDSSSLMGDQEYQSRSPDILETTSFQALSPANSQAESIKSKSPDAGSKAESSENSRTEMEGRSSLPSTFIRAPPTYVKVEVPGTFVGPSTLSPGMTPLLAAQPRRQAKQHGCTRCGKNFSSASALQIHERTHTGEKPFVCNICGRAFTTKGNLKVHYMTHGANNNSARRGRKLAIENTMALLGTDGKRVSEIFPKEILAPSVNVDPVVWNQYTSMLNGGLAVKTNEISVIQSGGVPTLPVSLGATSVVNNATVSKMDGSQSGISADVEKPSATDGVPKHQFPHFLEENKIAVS
Setting: 8-mer, flanks averaged, mean of replicates
Sequence	E-score
ATTGCTGC	-0.0442
GCGTATAA	0.194
CTAGCAAG	-0.185
CACCCTTC	-0.138
AAACCGCT	-0.168
CTCCACCA	-0.21
ATGGCATG	0.0427
GATAGCAA	0.182
CCTTGAAG	0.0564
AAGATCCC	-0.0766
GGATTCTA	-0.0661
CTAACTGA	0.0545
TGCGGTAA	0.127
AGTCTTGA	0.00904
CTGGCGAA	-0.168
ATTCGGTG	0.00169
AAGACCTG	-0.0882
CAGTGCAA	-0.0166
AAAAAGAA	0.205
ATGCTCTA	0.0239
TATTCTCA	0.21
TCCTGCAA	0.0413
GTTGCATA	0.0886
CAGGAGCA	-0.121
CATCACGA	0.0889

Series 5 — method: RNA Bind-n-Seq; form: RNA; sample: in vitro; tested at: 1 µM; setting: whole 134-nt RNA, ends assumed; together with: 150 mM KCl; relative to: input library; reading: higher = stronger binding
Target: Ras GTPase-activating protein-binding protein 1, C-terminal RGG region (G3BP1, Homo sapiens, UniProt Q13283)
Chain of UniProt Q13283 (whole entry, looked up): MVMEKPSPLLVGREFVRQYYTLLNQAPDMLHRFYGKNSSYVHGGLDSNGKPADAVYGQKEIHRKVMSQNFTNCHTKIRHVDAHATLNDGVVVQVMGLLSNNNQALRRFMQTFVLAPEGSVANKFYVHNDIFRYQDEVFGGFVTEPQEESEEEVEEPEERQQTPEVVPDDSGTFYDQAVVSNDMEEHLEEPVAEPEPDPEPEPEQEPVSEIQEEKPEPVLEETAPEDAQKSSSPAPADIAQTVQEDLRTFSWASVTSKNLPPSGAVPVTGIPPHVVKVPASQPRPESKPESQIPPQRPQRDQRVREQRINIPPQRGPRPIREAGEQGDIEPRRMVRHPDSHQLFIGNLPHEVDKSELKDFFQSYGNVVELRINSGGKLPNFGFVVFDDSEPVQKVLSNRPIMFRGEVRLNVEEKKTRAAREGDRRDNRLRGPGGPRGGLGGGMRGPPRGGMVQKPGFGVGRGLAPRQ
Sequence	log2 enrichment
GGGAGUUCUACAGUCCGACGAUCAGUCCUGUGCUACACAUCGUAUGUACCGAAUCGGGUGGGAAAAAAAGGGUUUUUGGGAAAGUAUUAUGUUACGCCGUUCGGAUCUGCACUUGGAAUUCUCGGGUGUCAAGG	0.0313
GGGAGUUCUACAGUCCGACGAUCCUGUGCUACACAUCGUAUGUACCGAAUCGGGGAAAGGGGUUUUUUUGGGGAAAAAAAGGGGAAAGUAUUAUGUUACGCCGUUCGGAUCUGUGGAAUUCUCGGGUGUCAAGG	-0.449
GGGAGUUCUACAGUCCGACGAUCAGUCCUGUGCUACACAUCGUAUGUACCGAAUCGGGUUUUUUUGGGAGGGAAAAAGGGAAAGUAUUAUGUUACGCCGUUCGGAUCUGCACUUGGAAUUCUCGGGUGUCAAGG	0.778
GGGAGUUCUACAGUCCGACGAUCACCAUGCAGGUGGGCAUCUUUGGGAAGUGGGGCAAGGGGGGGAUAGGGAGGGGGGUAACCCUUUGGGAACAGGUGGUCCCAGGUCGUUUCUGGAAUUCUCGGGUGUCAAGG	2.39
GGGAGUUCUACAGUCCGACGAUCUGGCCCUGGUGGCAUGCGGGGAAGAAGAGGUGGCCUCAUGGAUCGUGGUGGUCCCGGUGGAAUGUUCAGAGGUGGCCGUGGUGGAGACAGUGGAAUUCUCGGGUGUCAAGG	2.28
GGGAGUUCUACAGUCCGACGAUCAGUCCUGUGCUACACAUCGUAUGUACCGAAUCGGCCCCGGGGCCCCGGGCCCCGGGGAAAGUAUUAUGUUACGCCGUUCGGAUCUGCACUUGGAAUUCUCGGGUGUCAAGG	-2.88
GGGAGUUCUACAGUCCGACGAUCUCAUUCUAUACAGCCUUUUGUUUCAUUAGGAUCAGGCAGCUAGAGACAUGAAGAGGCUUGAAGAAAAGGACAAGGAAAGAAAAAACGUAAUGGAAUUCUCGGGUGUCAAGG	-2.27
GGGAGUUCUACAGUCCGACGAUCUGGAGAGGGAAGUCCCAAUGGUGCUAGAAUGGUGCUGCAGUGGCAGAAGACGGCUCACAAGUGAGGUCUGGAAGAACAACAGGGAAGACAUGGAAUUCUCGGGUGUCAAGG	-0.631
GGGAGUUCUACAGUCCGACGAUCAGUCCUGUGCUACACAUCGUAUGUACCGAAUCGGGAAAGGGUUUUUGGGAAAAAGGGAAAGUAUUAUGUUACGCCGUUCGGAUCUGCACUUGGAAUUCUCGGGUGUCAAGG	-0.0302
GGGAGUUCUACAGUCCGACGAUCCAAGUCCUGUGCUACACAUCGUAUGUACCGAAUCGGCCCCGGGGCCCCGGCCCCGGAAAGUAUUAUGUUACGCCGUUCGGAUCUGCACUUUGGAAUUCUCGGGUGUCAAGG	-1.92
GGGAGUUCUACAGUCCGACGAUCAGUCCUGUGCUACACAUCGUAUGUACCGAAUCGGGUUUUUUUGGGAAAGGGUUUGGGAAAGUAUUAUGUUACGCCGUUCGGAUCUGCACUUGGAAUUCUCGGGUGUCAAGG	1.05
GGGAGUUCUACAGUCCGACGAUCAGUCCUGUGCUACACAUCGUAUGUACCGAAUCGGAAAAGGGGAAAAGGGAAAAGGGGAAAGUAUUAUGUUACGCCGUUCGGAUCUGCACUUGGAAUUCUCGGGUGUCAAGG	-0.437
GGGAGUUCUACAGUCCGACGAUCUCCUGUGCUACACAUCGUAUGUACCGAAUCGGAAAAAAGGGGAAAAAAGGGGAAAAAAGGAAAGUAUUAUGUUACGCCGUUCGGAUCUGCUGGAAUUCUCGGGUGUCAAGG	-1.29
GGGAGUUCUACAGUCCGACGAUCUGGCCCUGGUGGCAUGCGGGGAGGAAGAGAUGGCCUCAUGGAUCGUGGUGGUCCCGGUGGAAUGUUCAGAGGUGGCCGUGGUGGAGACAGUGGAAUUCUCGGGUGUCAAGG	1.86

Series 6 — method: protein binding microarray; form: double-stranded DNA, one strand shown; sample: in vitro; tested at: not given; relative to: not given; reading: higher = stronger binding
Target: Histone acetyltransferase KAT6A, winged helix 1, GST fusion (KAT6A, Homo sapiens, UniProt Q92794, residues 1-85)
Setting: 8-mer, flanks averaged, mean of 2 arrays, mostly near background
Residues (chain): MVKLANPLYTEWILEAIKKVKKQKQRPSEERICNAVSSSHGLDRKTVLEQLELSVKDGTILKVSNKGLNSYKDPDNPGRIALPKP
Sequence	E-score
AGGGTCCG	0.0407
GGAAAATA	-0.0744
TGGGTACA	-0.00668
ATATTGAA	-0.212
AGTAAGTA	-0.1
ACAACGGG	0.0813
GCGCCTTA	0.283
CCCTGCTC	-0.285
CCTCACTC	-0.159
GGTTACGA	0.193
AGCATTAT	-0.098
GCCAATAC	0.0604
CAGAGGCG	0.0739
GAATCCCA	-0.365
AGGAGGTC	-0.177
CGATTGCG	0.277

Excerpt of the above (series 1):
Sequence	E-score
GACGTGGA	0.266
ACACGGGG	0.402
CATGGGAC	0.332
CTCGTGCA	0.396
CGTGCGCC	0.355
CATACATG	0.279
AGCGTGTC	0.334
ACAACACG	0.351
CACGCGGA	0.429
GTACACGA	0.337
ACGCAACA	0.267
AAGCATGC	0.399
CGTGGCAA	0.275
ATGAGGAG	0.254
